Measured values collected from several papers.
Numbered parts are unrelated; each lists some results of a single study. Changes are numbered by the printed parent chain.

Series 1
Target: Prothrombin, mature alpha-thrombin (F2, Homo sapiens, UniProt P00734)
Method: aptamer microarray, sandwich
Form: DNA with 2'F-ANA
Matrix: in vitro
Tested at: 200 nM
Notes: whole 15-mer aptamer, many near background
With: Cy3 exosite-II aptamer, 400 nM
Reading: higher = stronger binding
Strand: GGTTGGTGTGGTTGG
Modification	mean fluorescence intensity [a.u.]
2'F-ANA at 2 4 6 9 10 11 12 15	103
2'F-ANA at 1 6 7 8 10 11 12 13	62.8
2'F-ANA at 5 8 9 11 12 14	52.8
2'F-ANA at 1 3 5 10 11 12 13 15	50
2'F-ANA at 1 2 3 4 6 7 10 11 15	70.8
2'F-ANA at 3 5 6 8 11 13 14	56.2
2'F-ANA at 1 5 6 8 10 14	67.3
2'F-ANA at 1 2 4 5 6 7 10 12 13 15	69.1
2'F-ANA at 3 4 7 8 11 13 14	403
2'F-ANA at 3 5 8 9 10 11 12 15	64.9
2'F-ANA at 1 2 6 7 8 12 13 14 15	70.4
2'F-ANA at 2 5 10 11 13	49.3
2'F-ANA at 1 4 5 6 9 13 15	54.5
2'F-ANA at 3 6 7 8 11 12 14	565
2'F-ANA at 3 4 6 7 9 10 11 14 15	152
2'F-ANA at 2 8 9 10 12 13 15	148
2'F-ANA at 1 2 5 7 9 12 13 15	73.2

Series 2
Target: RNA binding protein fox-1 homolog 2, RRM domain, GST-SBP tag (RBFOX2, Homo sapiens, UniProt O43251-10, residues 100-194)
Method: RNA Bind-n-Seq
Form: RNA
Matrix: in vitro
Tested at: 365 nM
Notes: natural RNA segment, single round, ends assumed
Reference: no-protein control
Reading: higher = stronger binding
All sequences stand within: GGGAGUUCUACAGUCCGACGAUC … UGGAAUUCUCGGGUGCCAA
Target sequence (chain): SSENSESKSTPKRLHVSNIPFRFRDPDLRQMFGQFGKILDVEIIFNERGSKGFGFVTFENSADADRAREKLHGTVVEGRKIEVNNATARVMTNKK
Strand	RBNS enrichment (R)
UAAAAUAGAGCAGAAAAACACAAAAAGAGAACACUGGUUCAGACAUUCAGUGGGCAAGUAAAUUAUGGACUGCAAAAUAAUGAUUUUUAUUCAAGAAAGCUUUAAAAGUU	1.02
UUCUUGGUCCUAAGGUUCAUAGUUGAGGCCUUCUGUUCCAGCCUUAUGCUCCCAUCUCAGAGUUCAACUCUCAUCUCAAGAUCAUGGCCUUGCCCUUGGACUCAUCCUCA	0.474
UUGGGAGCCCCUGCCAGCCACCUGCACCUGUGGACAGUGGGUGGGGGCACUACUCCCCACUCAGAGCACAAAUGCAACUCCUUCCCCUACAAUCCCAUCCUGAGCCAUUG	0.948
UCCACUCCCCCUGCCGCCCACACUGCAGCAGCCACAUCCAUACACACACGCUCGCACAGUGUUCUGAGGAAGGAACCUUCGCCACAGACUCCUGUACUAUUAACAAUCUG	0.663
GUGCUUCACCCAGUUUGGAACUUUAAUCUGUAACCCAUGGAUCCACAGAUUUUCUUGGGAGCUUGAAUAGCCCUUCUUGGACAAUGGGGUCUGGAAAUAGGGCUGUCUGC	0.577
UGGGACUUGAAUCCAGAGACGUCCUCCAGGAACCCCUCAACGAAGCUGUGAAUGAAGAGGUUUCCUCUUUAAACCUGUCUGGUGGGCCCCCAGAUAUCCUCACCUCAGGG	0.178
UGAGCCUUAUCUAAUCCAGGUAGCUUCCUAGUUAAAGACUUGGUUAUCUGCUUCUUUUUACUUCUCCAGGUUUUGAUUUGUUUUGUUUUGUUUUAUUUGCGGGGGGAGUG	2.61
CUUAAAAAACAUGACAAGUCAUAACAGUUUUAAAGGGAAGACUUGUAAACUGGAAAAUCAUGUAUUUCUAAAGGCUGUGUACCUAUAAAUUAGUUGAGAAAGCUCUGUUU	0.616
UAGCGUACACAAGAUUCCAUGACUCCAGAGCAUCUUGAAGAAACAUACAUAUUUUGAAAGAGGGGAAAUGUAGCAGAUAGUUCACAAGCUGCGGGUUGUAGCUAAAUAUU	0.976
CCACUGGCCUACAGUCUUGCUUCUGCAGCACCCACUUUGUCUCCUCAGGUAGUGAUGAAUUAGUUGCUGUCACAAAAGGAGGGAAGUAGCACCCAAAUUAAGUUGCUUAA	0.344
UCUUACUCUGACACAUAGUAAUUGUGACAGCAGGGCUAAUGUUGAAGAAAAGUCAGAAGAAUCUUUAAGAUUUUAAAAAUGUCUUUAAAGUUUUUAAAAUGCUUACUACA	0.474
GCUCAGUGGUUAAGAGUACCUGUUGCUGUUGCAGAGGACCUGGAUUGGAUUCCCAGCACCCACUCAGUGGCCCACAACUAUCCAAUACUCCCGAUGCAUGGGAUCCAGUG	11

Series 3
Target: RING finger protein unkempt homolog, zinc fingers 1-6, SBP tag (UNK, Homo sapiens, UniProt Q9C0B0, residues 30-357)
UniProt Q9C0B0, sequence (30-357, looked up): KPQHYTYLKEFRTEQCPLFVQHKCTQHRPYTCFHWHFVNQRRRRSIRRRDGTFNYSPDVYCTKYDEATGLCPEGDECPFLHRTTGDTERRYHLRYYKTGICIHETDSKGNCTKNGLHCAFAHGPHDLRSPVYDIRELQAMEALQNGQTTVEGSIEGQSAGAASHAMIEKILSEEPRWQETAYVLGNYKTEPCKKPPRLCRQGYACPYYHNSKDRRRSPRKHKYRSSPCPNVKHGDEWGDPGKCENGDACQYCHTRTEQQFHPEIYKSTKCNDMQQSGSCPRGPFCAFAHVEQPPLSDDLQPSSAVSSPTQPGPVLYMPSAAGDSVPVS
Method: RNA Bind-n-Seq
Form: RNA
Matrix: in vitro
Tested at: 100 nM
Notes: RNA with constant flanks, vertebrate orthologous sites, ends assumed
Reference: input RNA pool
Reading: higher = stronger binding
All sequences stand within: GGGAGUUCUACAGUCCGACGAUC … CAACAGAGGAUUGAGCAUCA
Strand	bound/input enrichment [ratio]
CAUAAAAUAUUGGAUGCAGUGUAUAAAUUAUCCAAGGCAGUGACUUCAGCUUUAUAUAUAUUGUUAGUUUUAAAGUCAUCUACUUUUAUUUAAACUUCUAGAUUGGACUGUUUGCUAUUG	0.688
UCAGUCCCCUGGGCCGGGACAGAUUUUUUUUAACGUCUUGAAACUUAAACUCUGUGCUUGUAGGAUACUGUAACCUUUUUGUCUUUUUUUUUUUUUUUUUUUUAAACCUCCACCUCCAGU	2.31
CAACGCCAUGGUGGAAGGCUCCGAGCUCAAGAAGGUCCGAUCCAACUCCAGGGUGUACCACCGCUACUUCCUCCUGGAUGCUGAUAUGCAGUCUCUACGCUGGGAACCUUCCAAAAAGGA	0.289
CAGCUGACUCACUCAUUGGGAGAGCUGCACAUAUAGCUGUUCUUGAUUCAGAAAUAUUUUUAGAGAAAUUCUUUCUGGUUGCUGCCCUCAAAUAUUUCCAAUAAGAUAAAAACAUUGUUA	0.578
AUGGCUUUUGCUUCAUGAAAAAGACUUAAUAAAUAGUCCCCUCAAUUAAAAAUGCCUAAAUAGCUAUUUUAAAAAUCAAAUGUUUAAAUUUUGUAAAUCACCUGAUGUCACUACACACCU	0.661
UCAGUCCCUUGGGCCGGGACAGAUUUUUUUUAACGUCUCGAAACUUAAAUUCUGUGCUUGUAGGAUACUGUAACCUUUUUGUCUUUUUUUUUUUUUUUUUUUUUUUAAAAAAAAACCCUC	0.881
UAAUUCAAUGGUCGAGGGUUCAGAACUCAAAAAGGUUCGCUCCAACUCCAGAAUUUACCAUAGGUAUUUUUUACUGGACGCCGACAUGCAGAGCCUGAGGUGGGAACCAUCUAAGAAGGA	0.114
CAUGUCCCUGUUGCUGUGAUAUUUGAAAUAUCCACAGUACUCACUAUUUCCAAAUGAUUCUAGUAUUGCCUAGAAAUCUUUCUCUUACCUGUUAUUUAUCAACUUUUCCCUGUAUUUUUA	0.974
AGCCACCCAAGGAUUCAGGACUGGUUUUACAAAUAUACCAAGUAGAUAUGGAAAUAACAAUAGAAUUGGACAACCAAGACCAUGAUGUACUCUAACUUAUUUUUAUGAAGAAUAUUGACU	0.614
UAUUUUCUUAUUUUAGGUAUCAUUGCCCAAUGCCCAAGAUCUUUUAUGUUCAGCUGACUGUAGGAAACAAUGAAUUUUUUGGGGAAGGAAAGACUCGACAAGCUGCUAGACACAAUGCUG	1.45
UCCUCAACAUGUUCUAGCUUGUGAUCCUUCCAAGCUGGGUCAUAUUUUAGUGCUAGACAGUAGAAAUUUCACUUCUCUUUCCAUUGAUCAGAAAACCAGACAUUAAAAACAGGACUAUGU	1.31

Series 4
Target: Myc proto-oncogene protein, bHLH-zipper, MAX partner unstated (MYC, Homo sapiens, UniProt P01106, residues 368-449)
UniProt P01106, sequence (368-449, looked up): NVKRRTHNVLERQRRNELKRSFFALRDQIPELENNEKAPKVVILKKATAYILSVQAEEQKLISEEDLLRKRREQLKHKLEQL
Method: protein-binding microarray
Form: double-stranded DNA, one strand shown
Matrix: in vitro
Tested at: not given
Notes: k-mer, scored over probes, only values ≥0.25
Reading: higher = stronger binding
Strand	E-score
ACAATGTG	0.362
CCCTACCA	0.264
CACGCTGC	0.435
CGCGGGGC	0.316
CCCACCCG	0.26
CACGCACC	0.364
GGCGCCAC	0.323
GCGGCCAC	0.316
AACACGTT	0.369
ACGAGGCA	0.373
CACGCCCC	0.35
ATGTGGAG	0.256
ATCGTGCG	0.326
ATCGTGTC	0.275

Series 5
Target: Histone acetyltransferase KAT6A, winged helix 1, GST fusion (KAT6A, Homo sapiens, UniProt Q92794, residues 1-85)
Method: protein binding microarray
Form: double-stranded DNA, one strand shown
Matrix: in vitro
Tested at: not given
Notes: 8-mer, flanks averaged, mean of 2 arrays, mostly near background
Reference: not given
Reading: higher = stronger binding
Residues (chain): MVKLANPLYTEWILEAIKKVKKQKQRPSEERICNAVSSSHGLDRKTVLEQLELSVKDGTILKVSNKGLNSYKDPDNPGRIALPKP
Strand	E-score
AAAAGGGG	0.0151
AGAAGGTA	-0.182
CGCGCAAC	0.416
CAGGGTGC	-0.0159
AGGTGCAG	-0.163
ACCTTGCG	0.0785
ACCTCAAC	-0.166
CCATTGGG	-0.131
CCTACCGA	-0.0243
ATCAGAAG	-0.019
AGAAGGCA	-0.123
CGCCCCTC	0.159
CCCGGCCA	0.0938
CTTCCGCC	0.339
ACCGGCAA	0.276
AAAATTAC	0.00132
GATGCACC	-0.0199
ATGAACTG	-0.209

Series 6
Target: CCNA1, cyclin fold, Cln2 fusion (human)
Method: yeast growth competition, sequencing
Matrix: yeast
Notes: weak parent motif
Reference: not given
Reading: higher = stronger binding
Starting sequence: FZR1 docking peptide (human); QDYERRLLRQIVI
Change	normalised enrichment score
QDYERALLRQIVI [R6A]	0.349
QDYEKRLFRQIVI [R5K L8F]	0.449
QAYERRLLRQIVI [D2A]	0.193
QDYERRALRQIVI [L7A]	0.394
QDYARRLLRQIVI [E4A]	-0.0605
QDAERRLLRQIVI [Y3A]	0.0924
QDYERRLLRAIVI [Q10A]	0.224
QDYERRLARQIVI [L8A]	0.114

Repeated from above (series 4):
Strand	E-score
CGCGGGGC	0.316
CCCACCCG	0.26
CACGCACC	0.364
GGCGCCAC	0.323
GCGGCCAC	0.316
AACACGTT	0.369
